Results pooled from the literature.
Every numbered part comes from another study and shows a few of its results, in no order. Substitutions count along the parent as printed.

Study 1 — technique: protein-binding microarray; molecule type: double-stranded DNA, one strand shown; medium: in vitro; tested at: 250 nM; setting: 60-bp whole probe; added: salmon DNA 0.4 mg/ml; baseline: random background probes; reading: higher = stronger binding; quantity: log fluorescence; shared flanks, not repeated: GCCTAGCAC … GTCTTGATTCGCTTGACGCTGCTG
Target: Interferon regulatory factor 5, full length, phosphomimetic (IRF5, Homo sapiens, UniProt Q13568-2, residues 1-514, K96S/S451D/S453D/S456D/S462D)
TTAGGTAACGACACTGGGTTAGTGCTA: -0.0634 z-score
TTAGGACTGGGTCTCGGTTCGTGCTAG: -0.0841 z-score
TTAGGACTGGACACTGGGTTAGTGCTA: -0.397 z-score
TTAGGTTCCAGTTTCGATTAGTGCTAG: 9.25 z-score
GACGGACTGGACACAGGGGACGTGCTA: -0.326 z-score
TCACATCTGTCATGTTTGACTGTGCTA: 0.269 z-score
TCACTTTTCACTTTACAACTGTGCTAG: 2.5 z-score
TCATCTCCGGGGTCTGTGACTGTGCTA: -0.142 z-score
TTAGATATCGGGTATCGTTTAGTGCTA: 3.95 z-score
TCATCTTTCCTTCTTGAACTGTGCTAG: 1.21 z-score
GACGATTTCGGGTTTCGAGGCGTGCTA: 4.23 z-score
TTAGGACTGCTAATCCTTTAGTGCTAG: -0.213 z-score
TTAGGTCTCCTGATCCTTTAGTGCTAG: -0.421 z-score
TTAGATATCGGGTTCCGATTAGTGCTA: 2.24 z-score
TCTGTCCTGATAGCCCTGGCGTGCTAG: -0.331 z-score
CTTGTTTTACAATTTGCTTTGTGCTAG: 0.606 z-score
TTAGTTTTCGGGTATCGATTAGTGCTA: 8.5 z-score
TTAGATATAGGGTATCGATTAGTGCTA: 2.17 z-score
GACGGTTTCCTACTTCTGACGTGCTAG: 0.21 z-score
TTAGGATTCCTTTTCCTTTAGTGCTAG: 0.643 z-score
TTAGATATCACACTGGATTAGTGCTAG: 0.499 z-score
TTAGATGTCAGTTCCGATTAGTGCTAG: 0.87 z-score
TTAGATCTCAGTATCTATTAGTGCTAG: 0.973 z-score
TTAGATCTCAGTCTCTATTAGTGCTAG: 0.293 z-score
GACGGTTTCGACACCGGGGACGTGCTA: 4.86 z-score

Study 2 — target: CCNA2, cyclin fold, Cln2 fusion (human); technique: yeast growth competition, sequencing; medium: yeast; setting: strong parent motif; baseline: not given; reading: higher = stronger binding; quantity: normalised enrichment score
Parent: CENPC docking peptide (human); VKTKKRLNFDDKV; partner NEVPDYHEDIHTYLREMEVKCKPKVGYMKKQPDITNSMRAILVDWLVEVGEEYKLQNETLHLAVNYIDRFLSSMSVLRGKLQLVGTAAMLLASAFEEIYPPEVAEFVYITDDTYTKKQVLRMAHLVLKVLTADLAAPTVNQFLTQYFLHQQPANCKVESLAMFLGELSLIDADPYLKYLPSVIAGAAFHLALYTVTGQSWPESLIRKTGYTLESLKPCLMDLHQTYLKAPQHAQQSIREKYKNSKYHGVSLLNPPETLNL
VKTKKALNFDDKV [R6A]: 2.83
VKTKRRLNFDDKV [K5R]: 6.84
VATKKRLNFDDKV [K2A]: 3.79
VKTKKRLNFDAKV [D11A]: 4.39
VKAKKRLNFDDKV [T3A]: 7.24
VKTKKRLNFDDAV [K12A]: 5.81
VKTKKRLNFADKV [D10A]: 2.84

Study 3 — technique: protein binding microarray; molecule type: double-stranded DNA, one strand shown; medium: in vitro; tested at: not given; baseline: not given; reading: higher = stronger binding; quantity: E-score
Target: Histone acetyltransferase KAT6A, winged helix 2, GST fusion (KAT6A, Homo sapiens, UniProt Q92794, residues 85-181)
Setting: 8-mer, flanks averaged, mean of 2 arrays, mostly near background
Target sequence (chain): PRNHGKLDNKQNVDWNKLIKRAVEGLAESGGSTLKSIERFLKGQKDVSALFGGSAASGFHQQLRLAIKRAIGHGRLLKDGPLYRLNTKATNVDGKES
GCACTCCC: 0.0393
ACGTAAAC: -0.209
CCACACCG: 0.114
CATTCTTA: -0.00763
AATACTAT: -0.0304
CTAGGCAC: -0.00257
ACGTGTTA: -0.243
CCACCGAG: -0.0478
TAGACGAA: -0.0501
AAATGCCC: -0.0912
GAATGGAC: -0.0846
GACGGTTA: -0.107
ACGCCTTG: -0.0285
CCAAGCTA: -0.0254
TAAAATGA: 0.154
GTATGAGA: -0.0725

Study 4 — technique: RNA Bind-n-Seq; molecule type: RNA; medium: in vitro; tested at: not given; baseline: input RNA pool; reading: higher = stronger binding; quantity: bound/input enrichment
Target: RING finger protein unkempt homolog, zinc fingers 1-6, GST-SBP tag (UNK, Homo sapiens, UniProt Q9C0B0, residues 30-357)
Chain of UniProt Q9C0B0 (30-357, looked up): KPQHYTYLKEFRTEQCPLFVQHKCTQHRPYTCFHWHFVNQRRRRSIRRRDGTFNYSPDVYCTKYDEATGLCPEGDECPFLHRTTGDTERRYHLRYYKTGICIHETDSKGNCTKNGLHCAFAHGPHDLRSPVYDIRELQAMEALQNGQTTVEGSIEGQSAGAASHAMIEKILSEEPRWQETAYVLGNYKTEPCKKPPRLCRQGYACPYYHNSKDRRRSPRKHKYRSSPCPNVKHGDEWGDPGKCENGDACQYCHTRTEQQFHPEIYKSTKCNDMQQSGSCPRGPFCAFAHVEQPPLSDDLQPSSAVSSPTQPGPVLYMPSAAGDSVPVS
Setting: RNA with constant flanks, human and mouse sites, ends assumed
Shared flanks, not repeated: GGGAGUUCUACAGUCCGACGAUC … CAACAGAGGAUUGAGCAUCA
GGCAUGGUCAUCCACCAAGUAGAGGCCAAGCCCUCUGUCUAUUUCAUCAAGUUUGAUGACGAUUUCCAUAUUUACGUCUACGAUUUGGUGAAAACAUCCUAGAUGUCAUCACAAACUUUG: 0.0923 ratio
CGCUGCCGUGUGGGCCAAUGGGUGCGCAUGGAGAAUGUAACAGUGCUGGGUGAAGAUGUCAUAGUUAAUGAUGAACUGUACCUCAAUGGAGCCAGCGUGCUGCCCCACAAGUCUAUCGGG: 0.263 ratio
CCCUGGCUGUCCUGGAACUCUCUCUGUAGACCAGGCUGGCCUCGAACUCAGGGAUCCACCUAGCUCUGUCUCUGAGUGCUGAGACUGAAGGUGUGCGCCGCCACGCCUGGCUUUUUUCCC: 0.188 ratio
GUGGAAGGAAUCAUAGAGGAAGAAGAAGAAGAUGAGGAAGGAAGUGAGUCUAUAAGCAAGAGGAAAAAGGAAGAUGACAUGGAGACCAAGAAAGACCAUCCAUACACCUGGAGAAUUGAA: 0.816 ratio
UAAUGUUCUUAGAAAAGAAUUCUCAUUCAUCUUCCCAUAGUGAAAUUCUCUAGCACUGUAUUUAGAUUCUGGAUUUUUAUAAUUCAUGCUUAAUGUAUUAGACAUUUUUAGCCCAUAAUU: 12.9 ratio
GAGGAGAAGCCGCCUAACCCUAUGGAGGGCAUGACAGAGGAGCAGAAGGAGCACGAGGCCAUGAAGCUGGUGACCAUGUUUGACAAGCUCUCCAGGAACAGAGUCAUCCAGCCAAUGGGG: 0.178 ratio
ACUUUUCCAUGCAGAUUUGUGCACAUGUGAGAGGGUGUCCAGUUUGUCUAGUGAUUGUUAUUUAGAGAGUUGGACCACUAUUGUGUGUUGCUAAUCAUUGACUGUAGUCCCAAAAAAGCC: 0.219 ratio
CUGGUUGAUGGUGUUAAGAAACUCUCAGUUUGUGUUUCUGAGAAAGGAAGAGAGGAUGGUGAUGCACCGGUUACAAAAGAUGAGACCACCUGCAUUUCACAAGACACAAGAGCUUUAUCG: 0.133 ratio
ACGCAUCACGGGCACGGGGCGCCAAGGCAUAUUCCCUGCCAGCUACGUGCAGGUGUCUCGUGAACCCCGGCUCCGGCUCUGUGACGACGGCCCCCAGCUCCCCACGUCUCCCCGCCUGAC: 0.123 ratio
CUGAAGGUUCUAGGCACAGCUUUUGAUCCCUUCUUAGGAGGAAAGAACUUUGAUGAGAAGCUAGUAGAACAUUUUUGUGCUGAAUUUAAAACCAAGUACAAAUUGGAUGCAAAAUCCAAA: 0.34 ratio
GGAAUUGCAAACUGAUUCAAGUUUGAAUAUCACAAUGUUAGCUUUCUAAUUCCACACAGAUAGUUUUUACAGUUUCUAACCCCACAUCAAUCCAUCACCGUUUAUAAAGAUCAGCUUCCC: 2.68 ratio

Study 5 — technique: RNA Bind-n-Seq; molecule type: RNA; medium: in vitro; tested at: 365 nM; baseline: no-protein control; reading: higher = stronger binding; quantity: RBNS enrichment (R)
Target: RNA binding protein fox-1 homolog 2, RRM domain, GST-SBP tag (RBFOX2, Homo sapiens, UniProt O43251-10, residues 100-194)
Setting: natural RNA segment, single round, ends assumed
Shared flanks, not repeated: GGGAGUUCUACAGUCCGACGAUC … UGGAAUUCUCGGGUGCCAA
Construct (chain): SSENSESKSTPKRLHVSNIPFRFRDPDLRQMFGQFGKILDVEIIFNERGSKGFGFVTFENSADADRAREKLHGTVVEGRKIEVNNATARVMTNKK
GUGCAGGGGUUCUUUUCAGUUAGAAAAGGCAGGUUGCUUUAAUGUUAUUCUGACUCGCAUUGUUUGCCAACAGAAAAUAUUUUAUACUUUUGUUAUUAAAGCAUCCAGGG: 0.646
UUUAAUUUUCAAGAUAAUUUAACUCUUGUCUAAUAUUCUUGUGUAAGGGAUUAAUUUUCAGACCCCUUUAAAAGUGAGUGCCAUAAAGAGUCAAUAUAUAGUGUUGAAGU: 0.427
UUUUUCCUUUUAGUGUCUCUUGAAGCUACAUGGCUAGAAUAGAUAUGAUUUGGAGGGUUUAAUUUCCUUUUGUGAGGAUUACUGCUACUUCUUCCUAGCCAAUUCCUCAU: 0.239
GCAGUUGUGCCCGUUUUUUGACAUCUGUGUCCCUUCAUGUUGCAUCAUCUGUACUAUUCUGUGUUACUCUUGGUUUCUGGCCACUUUUCAGAAUGAAGAUGAAUGGCCUG: 1.76
CUCGGCUCUAGACUUGGGGGAGGGGUUGCCACAGGCCUCCCAGUCUAAAACCCACCUUUGUCUGAGGUGCCGGGAGUAGCCAUGGUACCCCCUUCCUGGGCAUCCGUUCG: 0.443
UGUACGCACAGUCUGUGCUGCAUGUCUGUCACCCAUACGCAGUCUCAAUCAUGGCCUUCACUGAGUGCUUUUGAGAUCCCAGUGCUAAUGUUUUAACUGCCUUUCUGUUG: 0.249
CCCUGGAGCACUGGGAACAACUGGUCUCCUGUGAUGGCUGGGACUCCUCGCGGGAGGGGACUGCGCUGCUAUAGCUCUUGCUGCCUCUCUUGAAUAGCUCUAACUCCAAA: 0.281
ACGGAAAAUUCCCCAGAUCACGUUUGGAUUUAAAAACUCAUCCCUUGUCGUGCUUCAAUGCAUGCCAUUUGUCACUUACCAUACUUCACCAUGGCCGAGCUUCAUGUCAC: 0.674
ACUAAGCAUGGUCUGUAGCUAUUAAAAGCACACAAUCUGAAGGGCUGUAGAUGCACAGUAGUGUUUUCCCAGAGCAUGUUCAAAAGCCCUGGGUUCAAUCACAAUACUGA: 8.92
UUGAAACUGAGAGUGUUGGGAAGGAUAUACUUACGUAAUGGAGCUGUCAAAGCCGAGAGACCAGCCUGCGUCCUAAAGUUUGCUUUAGAGAGUAGGAAUGUCGGGGUUUC: 0.438
CUUCUAUAUGGCAGUUCAUUCUUGGCCCUCAGGAUUGGGGAGACCAGCUCUCAUUGUGUGUGCUCAGGGCUAAGUCUAAACAAGGGUUUGCUGGCCCCCAAGCUGUUGUU: 1.8
UGAGCUUGCUUGUGUGUGUGUGCGCGUGUGCGUGUGUUGCUCCAAUAAAGUUUGUACACUUUCUGAAUAGUAUCUGAUUUGUUGCGCCAGGGCCCUCUGAUACCAGCAUU: 2.33
